Assay results collected from several papers.
A part holds a random share of what one study measured. “And” joins repeats or separate records; there may be more than shown.

Sample 1
Cell line: HaCaT
Tested at: 100 µM
Time: 36 h
Endpoint: viability
SMILES = CC(=O)Nc1cccc(-n2c(=O)n(C3CC3)c(=O)c3c(Nc4ccc(I)cc4F)n(C)c(=O)c(C)c32)c1; value = 74%
SMILES = Cc1ncc([N+](=O)[O-])n1CCO; value = 73.1%
SMILES = N#C/C(=C1/SC[C@@H](c2ccc(Cl)cc2Cl)S1)n1ccnc1; value = 26.8%
SMILES = CCc1c(C)[nH]c2c1C(=O)C(CN1CCOCC1)CC2 (stereo not drawn); value = 86.7%
SMILES = CC(=O)OC(C)C[N+](C)(C)C (stereo not drawn); value = 92.8%
SMILES = CCc1cccc2c3c([nH]c12)C(CC)(CC(=O)O)OCC3 (stereo not drawn); value = 92.5%

Sample 2
Target: Alpha-1D adrenergic receptor (ADRA1D, Homo sapiens, UniProt P25100)
Sequence of UniProt P25100 (whole entry, looked up): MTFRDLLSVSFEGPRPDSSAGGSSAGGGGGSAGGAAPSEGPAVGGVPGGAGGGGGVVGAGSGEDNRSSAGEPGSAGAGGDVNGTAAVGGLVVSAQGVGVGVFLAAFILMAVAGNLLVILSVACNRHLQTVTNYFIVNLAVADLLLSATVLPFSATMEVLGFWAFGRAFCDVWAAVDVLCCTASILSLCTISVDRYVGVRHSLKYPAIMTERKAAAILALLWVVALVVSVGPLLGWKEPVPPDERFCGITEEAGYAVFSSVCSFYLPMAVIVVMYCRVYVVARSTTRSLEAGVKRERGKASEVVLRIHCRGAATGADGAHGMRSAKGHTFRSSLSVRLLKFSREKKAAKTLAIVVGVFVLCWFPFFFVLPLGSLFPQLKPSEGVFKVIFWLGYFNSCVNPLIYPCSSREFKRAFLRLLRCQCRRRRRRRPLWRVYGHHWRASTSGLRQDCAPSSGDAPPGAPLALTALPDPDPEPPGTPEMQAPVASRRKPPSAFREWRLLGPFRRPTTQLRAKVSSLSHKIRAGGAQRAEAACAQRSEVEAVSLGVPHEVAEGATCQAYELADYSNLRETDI
Effect on: ligand displacement
Tested at: 10 µM
Endpoint: inhibition
Structure (SMILES) = Nc1nc(NCc2ccccc2)nc(-c2ccccc2CO)n1; value = 4.63%
Structure (SMILES) = CC1=C(C#N)C(c2ccc3[nH]nc(C)c3c2)C(C#N)=C(C)N1; value = 2.5%
Structure (SMILES) = Nc1nc(NCc2ccccc2)nc(-c2cccc(CO)c2)n1; value = -8.75%
Structure (SMILES) = Cn1cc(Cl)c2c(Oc3c(F)cc(Nc4cc(Cl)nc(N)n4)cc3F)ccnc21; value = -6.73%
Structure (SMILES) = COc1ccc2cc(OCC3(C(=O)O)CN(C(=O)c4ccc(F)cc4)C3)ccc2c1; value = -3.76%
Structure (SMILES) = CN(C)c1ncnc(-c2ccc3nc(Nc4cc(CN5CCN(C(=O)CC(F)(F)F)CC5)ccn4)[nH]c3c2)c1Cl; value = 20.8%
Structure (SMILES) = C[C@H](c1ccc(F)cc1)N(Cc1cccc(C(=O)O)c1)C(=O)c1cnc2ccccc2c1; value = 27.3%
Structure (SMILES) = COCCOc1nc(-c2ccc(Cl)nc2)nc2c1CN(C(=O)c1ncn3ccccc13)CC2; value = -4.48%
Structure (SMILES) = COc1cc(N[C@@H]2CCCC[C@]2(O)C(F)(F)F)ccc1F; value = -4.64%
Structure (SMILES) = Cc1ncc(-c2cc(Cl)ccc2F)cc1-n1c(=O)n(CC(N)=O)c2ccccc21; value = 2.71%
Structure (SMILES) = COc1cc(-c2cn(C3CCc4c(F)cccc4N(CC(F)(F)F)C3=O)nn2)ccc1-n1cnc(C)c1 (stereo not drawn); value = 2.11%
Structure (SMILES) = CC1CCN(c2ccnc(NCc3cn(C)cn3)n2)CC1; value = 25.1%
Structure (SMILES) = Cc1ccccc1Oc1cc(-n2c(=O)cc(C(F)(F)F)[nH]c2=O)c2ccccc2c1Cl; value = -5.48%

Sample 3
Cell line: Huh-7
Tested at: 10 µM
Time: 24 h
Endpoint: viability
Structure (SMILES) = CCN(CC)CCCC(C)Nc1c2ccc(Cl)cc2nc2ccc(OC)cc12 (stereo not drawn); value = 37.7%
Structure (SMILES) = CN1C(C(=O)Nc2ccccn2)=C(O)c2sccc2S1(=O)=O; value = 101%
Structure (SMILES) = CCCCNC(=O)NS(=O)(=O)c1ccc(C)cc1; value = 98.8%
Structure (SMILES) = C[C@@H]1CC2C3CCC4=CC(=O)C=C[C@]4(C)[C@@]3(F)[C@@H](O)C[C@]2(C)[C@H]1C(=O)CO (stereo partly drawn); value = 103%
Structure (SMILES) = CN(C)CCC=C1c2ccccc2CCc2ccccc21; value = 96.5%

Sample 4
Cell line: mouse MPNST tumor cells
Method: high-content nuclear imaging
Measured: cell number
Tested at: 10 µM
Time: 12 h
Notes: mean of 2 replicates
Baseline: plate mean
Direction: higher = more cells
Endpoint: nuclei count
Structure (SMILES) = O=C(NCCCCN1CCN(c2cccc(Cl)c2Cl)CC1)c1ccc2c(c1)Cc1ccccc1-2; value = 2.14 z-score
Structure (SMILES) = COc1ccccc1OCC(O)CN1CCN(CC(=O)Nc2c(C)cccc2C)CC1 (stereo not drawn); value = 0.563 z-score and 0.979 z-score and 0.845 z-score
Structure (SMILES) = CCc1ccc(CCOc2ccc(CC3SC(=O)NC3=O)cc2)nc1 (stereo not drawn); value = 2.29 z-score and -0.363 z-score
Structure (SMILES) = CC#CCOc1ccc(S(=O)(=O)N2CCSC(C)(C)[C@@H]2C(=O)NO)cc1; value = 2.95 z-score
Structure (SMILES) = CN1[C@@H]2CC[C@H]1C[C@@H](OC(=O)C(O)c1ccccc1)C2 (mixture of isomers); value = 1.77 z-score
Structure (SMILES) = COc1ccc(NS(=O)(=O)c2ccc(N)cc2)nn1; value = 4.65 z-score

For quick reference, copied from above (sample 4):
Structure (SMILES) = CCc1ccc(CCOc2ccc(CC3SC(=O)NC3=O)cc2)nc1 (stereo not drawn); value = 2.29 z-score and -0.363 z-score
Structure (SMILES) = CC#CCOc1ccc(S(=O)(=O)N2CCSC(C)(C)[C@@H]2C(=O)NO)cc1; value = 2.95 z-score
Structure (SMILES) = O=C(NCCCCN1CCN(c2cccc(Cl)c2Cl)CC1)c1ccc2c(c1)Cc1ccccc1-2; value = 2.14 z-score
Structure (SMILES) = COc1ccccc1OCC(O)CN1CCN(CC(=O)Nc2c(C)cccc2C)CC1 (stereo not drawn); value = 0.563 z-score and 0.979 z-score and 0.845 z-score
Structure (SMILES) = CN1[C@@H]2CC[C@H]1C[C@@H](OC(=O)C(O)c1ccccc1)C2 (mixture of isomers); value = 1.77 z-score
